Experimental data pooled from the literature.
Protocols differ between the studies behind these lines. Numbers after ± are the reported error.

C[C@@H](NC(=O)[C@H](Cc1ccccc1)NC(=O)[C@@H](CCCNC(=N)N)NC(=O)[C@H](CCCN)NC(=O)[C@@H]1CNC(=O)c2cc3cc(c2)C(=O)N[C@H](Cc2ccc4ccccc4c2)C(=O)N[C@@H](CO)C(=O)N[C@@H](CC(N)=O)C(=O)N[C@H](Cc2ccc4ccccc4c2)C(=O)N[C@@H](c2ccccc2)C(=O)N[C@@H](CCCCNC3=O)C(=O)N[C@H](Cc2ccccc2)C(=O)N[C@@H](CCC(N)=O)C(=O)N[C@H](CCCNC(=N)N)C(=O)N[C@@H](CCCNC(=N)N)C(=O)N1)C(=O)NCCOCCOCC(=O)NCCOCCOCC(=O)N[C@@H](CCCCNC(=O)c1ccc2c(c1)C(=O)OC21c2ccc(O)cc2Oc2cc(O)ccc21)C(N)=O  binding (purine nucleoside phosphorylase; fluorescence polarization; concentration not given): no binding
N[C@@H](Cc1ccc(C(=O)NCCc2cccc3ccccc23)cc1)C(=O)N1Cc2ccccc2C[C@H]1C(=O)N[C@@H](Cc1ccccc1)C(=O)N[C@@H](Cc1ccccc1)C(=O)O  relative affinity (Oprd1 (Rattus norvegicus, UniProt P33533); binding, [3H]DSLET displacement; rat brain membranes; baseline: DPDPE): 5 to 8 fold
CC(=O)N[C@H]1C(O)O[C@H](CO)[C@@H](O[C@@H]2O[C@H](CO)[C@H](O)[C@H](O)[C@H]2O)[C@@H]1O (stereo partly drawn)  –TΔS (Galectin-3 (LGALS3, Homo sapiens, UniProt P17931); binding, isothermal titration calorimetry; full-length protein): 6.6 kcal/mol
C[C@@H]1O[C@@H](O[C@H]2C[C@@H](O)[C@]3(CO)[C@H]4[C@H](O)C[C@]5(C)[C@@H](C6=CC(=O)OC6)CC[C@]5(O)[C@@H]4CC[C@]3(O)C2)[C@H](O)[C@H](O)[C@H]1O  tolerance ratio (Na+/K+-ATPase; inhibitor; baseline: Oncopeltus fasciatus over monarch): 8 X
O[C@@H]1[C@@H](O)[C@H](O[C@@H]2OC[C@@H](O)[C@H](O)[C@H]2O)C[C@H]2N[C@@H]12  probe labelling (Probable endo-1,4-beta-xylanase C (xlnC, Aspergillus niger, UniProt C5J411); activity-based probe binding, competitive inhibitor, in-gel fluorescence; Aspergillus niger, xylan-induced secretome; concentration not given, band near 30 kDa, with: Cy5 xylobiose activity-based probe): inhibited
CC(=O)NCC(=O)NCC(=O)N[C@@H](CCCCNP(=O)(O)O)C(=O)NCC(=O)NCC(N)=O  first-order rate constant (Phospholysine phosphohistidine inorganic pyrophosphate phosphatase (LHPP, Homo sapiens, UniProt Q9H008); substrate; 100 µM, pH 7.8): 0.000344 s⁻¹
CCC(C)Sc1nc2c([nH]1)c(=S)n(C)c(=O)n2C (stereo not drawn)  remaining activity (Androgen receptor (AR, Homo sapiens, UniProt P10275); reporter gene, antagonist, PSA-luciferase; HeLa-A6; 10 µM, 24 h, with: 5 nM dihydrotestosterone; baseline: maximal activity): 103%
CC(C)P(=S)(NP(=S)(C(C)C)C(C)C)C(C)C  number of binding sites (Alpha-amylase (Bacillus subtilis, UniProt P00691); fluorescence quenching; concentration not given, 298 K): 0.77 ± 0.08
NS(=O)(=O)c1ccc(NC(=O)c2ccccc2SSc2ccccc2C(=O)Nc2ccc(S(N)(=O)=O)cc2)cc1  potency ratio (Gag-Pol polyprotein, integrase (gag-pol, Human immunodeficiency virus type 1 group M subtype B, UniProt P04585, C1427S); 3'-processing, inhibitor; C280S full-length IN; baseline: Mg2+ over Mn2+ dependent activity): ~10 fold
COc1ccccc1CN(CCC(C)C)c1nc(C#N)nc(N2CCOCC2)n1  selectivity ratio (CPL (Toxoplasma gondii, UniProt Q6DMN0); enzyme activity, inhibitor; baseline: human over Toxoplasma IC50): 0.07
CCN(Cc1ccccc1)C(=O)CCc1nc(CN2CCN(C(=O)Cc3ccc(OC)c(OC)c3)CC2)no1  activation V1/2 (KCNQ4 (Homo sapiens, UniProt P56696); potassium current, whole-cell patch clamp; CHO, stable; 1 µM): -31.9 ± 0.9 mV
C=C(C)C(=O)Oc1ccc(C(C)(C)c2ccc(OC(=O)C(=C)C)cc2)cc1  maximum inhibition (Aromatase (CYP19A1, Homo sapiens, UniProt P11511); enzyme activity, inhibitor, tritiated water release; JEG-3; maximum observed effect concentration, with: androstenedione 10 nM; baseline: control): 40%
CC(=O)NC(Cc1ccc(Br)c(Cl)c1)C(=O)N[C@@H](C)C(=O)N1CCC[C@H]1C(=O)N1CCC[C@H]1C(=O)N[C@@H](CCC(=O)O)C(=O)N[C@@H](Cc1c[nH]cn1)C(=O)N[C@@H](CO)C(=O)N[C@H](C(=O)N[C@@H](C)C(N)=O)[C@@H](C)OP(=O)(O)O (stereo partly drawn)  inhibition (FGFR1 (Homo sapiens, UniProt P11362); cell-free assay, inhibitor; 10 µM): 0.74%
O=C(O)/C=C/c1cc(O)cc(O)c1  inhibition (ACHE (Homo sapiens, UniProt P22303); enzyme activity, inhibitor; 125 µg/mL): 56.1 ± 1.1%
C[C@@H](O)[C@H](NC(=O)[C@H](CCCCN)NC(=O)CCC(=O)O)C(=O)NCC(=O)N[C@@H](CC(=O)O)C(=O)N[C@@H](CCC(=O)O)C(=O)N[C@@H](CCCCN)C(=O)N[C@@H](CCCCN)C(=O)NCC(=O)NCC(=O)N[C@@H](Cc1ccc(O)cc1)C(=O)NCC(=O)N[C@@H](CCCNC(=N)N)C(=O)N[C@@H](CCCCN)C(=O)N[C@@H](CCCCN)C(=O)N[C@@H](CCCNC(=N)N)C(=O)N[C@@H](CCCNC(=N)N)C(=O)N[C@@H](CCC(N)=O)C(=O)N[C@@H](CCCNC(=N)N)C(=O)N[C@@H](CCCNC(=N)N)C(=O)N[C@@H](CCCNC(=N)N)C(N)=O  Kd (Heat shock protein HSP 90-alpha, with Cdc37 (HSP90AA1, Homo sapiens, UniProt P07900); Hsp90 Cdc37 binding, inhibitor, field-effect biosensor; 200 µM, pH 7.4, with: Cdc37 0.4 to 200 nM): 2780 ± 20 nM
